Measured values of several laboratories.
Parts stem from different laboratories: compare values within a part only. Positions count from the first letter of the parent shown.

Block 1
Target: Centromere-binding protein 1, full length, N-terminal tag (CBF1, Saccharomyces cerevisiae, UniProt P17106, residues 1-351)
Sequence of UniProt P17106 (whole entry, looked up): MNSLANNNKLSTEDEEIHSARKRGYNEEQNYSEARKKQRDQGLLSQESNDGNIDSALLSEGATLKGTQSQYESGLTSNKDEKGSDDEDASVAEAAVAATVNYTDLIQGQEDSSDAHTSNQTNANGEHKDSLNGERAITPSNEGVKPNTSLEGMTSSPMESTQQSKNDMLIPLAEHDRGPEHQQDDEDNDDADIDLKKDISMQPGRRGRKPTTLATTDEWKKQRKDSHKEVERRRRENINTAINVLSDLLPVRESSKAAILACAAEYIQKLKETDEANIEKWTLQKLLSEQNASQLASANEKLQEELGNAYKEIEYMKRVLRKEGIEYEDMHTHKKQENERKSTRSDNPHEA
Method: protein-binding microarray
Molecule type: double-stranded DNA, one strand shown
Sample: in vitro
Concentration: 0.8 µM
Notes: whole 60-bp probe, no competitor
Reading: higher = stronger binding
| Strand | fluorescence intensity [a.u.] |
| --- | --- |
| GAACAGGGGATTCATCTGATGATGGAAAAAGTTTAGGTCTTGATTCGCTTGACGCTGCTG | 535 |
| CTAAAAAGAGAAGACCCCCACGTGCCCTAAAAATTCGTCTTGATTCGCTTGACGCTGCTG | 3000 |
| GAATAAATCACTTTACACGTTCTCGAGAACAGTTAGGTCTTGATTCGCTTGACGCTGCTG | 526 |
| CTAAGGAACAAACAAAACGCACGAAAATAGCTATTCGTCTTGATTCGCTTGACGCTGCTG | 521 |
| CTATGTGTGATGGACATCAGCATTCAATGTATATTCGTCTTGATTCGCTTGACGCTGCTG | 506 |
| CTAGAATGCAGGGGTGACGTCCTTCTTCGGGTGTTCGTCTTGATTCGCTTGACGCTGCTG | 540 |
| GAATCAATCTTGCATCACCATTACCAGCACGATTAGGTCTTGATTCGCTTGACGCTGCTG | 558 |
| CCTAACTACTATAGCCACGCTTTATAGCTTCGTACAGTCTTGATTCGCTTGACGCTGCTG | 495 |
| GAACTAACACACACACACACGCACAAAAAAATGTAGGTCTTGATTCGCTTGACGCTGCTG | 629 |
| CTAAACTTCTAATGTCACGCAAGAAGTGAAAGTTTCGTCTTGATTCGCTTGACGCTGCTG | 576 |
| GAACTAGTGTCGTTGTGCGTGATTTTTCACTTTTAGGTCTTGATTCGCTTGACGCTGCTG | 577 |

Block 2
Target: FOS, bZIP domain (human)
Method: DHFR protein complementation
Sample: yeast
Notes: single substitutions, most at no-binding floor
Baseline: wild-type JUN-FOS pair
Reading: higher = stronger binding
Parent: JUN, bZIP domain (human); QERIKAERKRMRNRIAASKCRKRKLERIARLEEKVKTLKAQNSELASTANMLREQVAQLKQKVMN; partner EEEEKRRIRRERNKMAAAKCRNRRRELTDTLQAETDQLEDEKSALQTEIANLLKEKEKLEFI
| Variant | binding fitness |
| --- | --- |
| Q41M | -0.12 natural log |
| Q41H | -0.171 natural log |
| L38H | -1.35 natural log |
| T37H | 0.0413 natural log |
| A29H | -0.112 natural log |
| T37R | -0.0547 natural log |
| T48H | -0.038 natural log |

Block 3
Target: Histone acetyltransferase KAT6A, winged helix 2, GST fusion (KAT6A, Homo sapiens, UniProt Q92794, residues 85-181)
Method: protein binding microarray
Molecule type: double-stranded DNA, one strand shown
Sample: in vitro
Concentration: not given
Notes: 8-mer, flanks averaged, mean of 2 arrays, mostly near background
Baseline: not given
Reading: higher = stronger binding
Construct (chain): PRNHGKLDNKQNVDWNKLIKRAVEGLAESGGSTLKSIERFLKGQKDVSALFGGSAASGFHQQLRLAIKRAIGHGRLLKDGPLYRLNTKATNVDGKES
| Strand | E-score |
| --- | --- |
| ACTCGTTG | -0.182 |
| CGGAGAAC | 0.0246 |
| CATCGAAA | 0.097 |
| AGCCTCGG | 0.0766 |
| ATCATCAC | 0.0136 |
| TCATAGAA | 0.063 |
| TCCCTGAA | 0.0685 |

Further values, each from its own experiment
| Substance | target | test | test system | setting | how to read | measurement | value |
| --- | --- | --- | --- | --- | --- | --- | --- |
| PhoQ, residues 284 288 289 292 302 303 ASTSDA | PhoP, residues 12 14 15 18 19 NHFRA (Escherichia coli, UniProt P23836) | Sort-seq, item: YFP reporter | E. coli | PhoQ-PhoP variant library, together with: 10 µM Mg2+ | baseline: high Mg2+ state, higher = stronger signaling | fold induction | 8.05 |
